Literature values that unrelated publications cite.
Protocols differ between the studies behind these lines. Numbers after ± are the reported error.
UniProt P28221, sequence (whole entry, looked up): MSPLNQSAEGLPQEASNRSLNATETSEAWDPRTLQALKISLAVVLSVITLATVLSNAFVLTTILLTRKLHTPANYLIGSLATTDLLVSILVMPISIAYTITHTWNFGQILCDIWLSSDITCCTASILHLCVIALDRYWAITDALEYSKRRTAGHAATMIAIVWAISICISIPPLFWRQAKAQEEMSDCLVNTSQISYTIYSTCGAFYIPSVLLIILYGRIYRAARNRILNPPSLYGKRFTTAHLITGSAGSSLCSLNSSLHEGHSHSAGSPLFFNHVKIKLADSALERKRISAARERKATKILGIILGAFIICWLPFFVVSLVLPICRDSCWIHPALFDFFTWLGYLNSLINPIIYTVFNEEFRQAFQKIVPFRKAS
UniProt P25021, sequence (whole entry, looked up): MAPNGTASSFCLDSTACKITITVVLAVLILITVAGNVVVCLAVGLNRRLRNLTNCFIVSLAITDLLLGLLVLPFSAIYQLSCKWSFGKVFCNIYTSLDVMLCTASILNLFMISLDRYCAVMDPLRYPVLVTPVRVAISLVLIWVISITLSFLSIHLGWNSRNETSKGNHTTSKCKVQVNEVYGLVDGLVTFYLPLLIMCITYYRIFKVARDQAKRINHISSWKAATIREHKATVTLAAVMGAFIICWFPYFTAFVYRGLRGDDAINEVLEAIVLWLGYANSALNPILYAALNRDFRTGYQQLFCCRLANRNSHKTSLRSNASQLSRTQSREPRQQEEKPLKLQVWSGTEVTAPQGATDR

Molecule | tested on | assay | system | conditions | scale | endpoint | result
C[C@]12CC[C@@H](O)C[C@@H]1CC[C@@H]1[C@@H]2CC[C@@]2(C)[C@H]1CC[C@@]21CO1 |  | loss of swimming reflex | tadpoles |  |  | EC50 | 2760 ± 10 nM
C=CCN(CC=C)CCc1c[nH]c2ccccc12 | 5-hydroxytryptamine receptor 1D (HTR1D, Homo sapiens, UniProt P28221) | binding | cloned human receptor | added: [3H]GR125743 |  | Ki | 689 nM
CC1=CC(=O)[C@@H](O)[C@]2(C)[C@H]3[C@@H](O)[C@H](O)[C@@]4(C)OC[C@@]35[C@@H](C[C@@H]12)OC(=O)[C@H](O)[C@]54O |  |  | streptozotocin diabetic rats | dose not given | relative to: untreated diabetic rats | blood glucose lowering | 88 ± 2.91%
C[C@]1(c2nc3c(C(N)=O)cccc3[nH]2)CCCN1 |  |  | human germline BRCA-mutated cancer | dose not given, phase I monotherapy, all doses |  | overall response rate | 29%
C[C@]1(c2nc3c(C(N)=O)cccc3[nH]2)CCCN1 |  |  | human, BRCA-mutated TNBC | 120 mg twice daily, then monotherapy, added: carboplatin plus paclitaxel |  | progression-free survival | 14.5 months
COc1ccc(CN(C(=O)[C@@H](N)Cc2c(C)cc(C(N)=O)cc2C)[C@@H](C)c2nc(-c3ccccc3)c[nH]2)cc1C(=O)O |  |  | human | 300 mg single radiolabelled dose, 336 h |  | dose recovered in faeces | 82%
tirzepatide |  |  | type 2 diabetes patients | 5 mg weekly, 40 weeks |  | HbA1c change from baseline | -2.01%
CN1[C@@H](CCc2ccccc2)CCC[C@H]1CCc1ccccc1 |  | dopamine release, inhibitor | striatal slices | added: methamphetamine |  | IC50 | 650 nM
tirzepatide |  |  | human adults with obesity | dose not given, week 0 to 88 |  | body weight reduction | 25.3%
C=CCN(CC=C)CCc1c[nH]c2ccc(F)cc12 | Histamine H2 receptor (HRH2, Homo sapiens, UniProt P25021) |  |  |  |  | Ki | > 10000 nM
CC(=O)O[C@@]12CO[C@@H]1C[C@H](O)[C@@]1(C)C(=O)[C@H](O)C3=C(C)[C@@H](OC(=O)[C@H](O)[C@@H](NC(=O)OC(C)(C)C)c4ccccc4)C[C@@](O)([C@@H](OC(=O)c4ccccc4)[C@H]21)C3(C)C |  |  | human unselected stage IV NSCLC | dose not given, second-line after platinum chemotherapy |  | objective response rate | 14%
L-Tyr-D-Arg |  | analgesia, tail-pinch test | mouse | intracisternal |  | ED50 | 6.2 nmol
CC(=O)c1c(C)c2cnc(Nc3ccc(N4CCNCC4)cn3)nc2n(C2CCCC2)c1=O |  |  | human HR+/HER2− metastatic breast cancer | dose not given, phase III trial, added: fulvestrant |  | progression-free survival | 9.2 months
C=CC=O |  | dopamine vesicular uptake | striatal synaptic vesicles | added: [3H]dopamine |  | IC50 | 213000 nM
Cc1nc(N(C)C(=O)Cc2ccc(-c3ccccn3)cc2)sc1S(N)(=O)=O |  | three-week survival | mouse, intranasal HSV-1 infection | oral |  | ED50 | 0.5 mg/kg
O=c1c2cc(O)c(O)cc2oc2cc(O)c([C@@H]3O[C@H](CO)[C@@H](O)[C@H](O)[C@H]3O)c(O)c12 |  |  | rat, alloxan-induced diabetes | dose not given, 21 days | relative to: untreated diabetic rats | fasting blood glucose | decreased
N[C@@]1(c2ccccc2Cl)CCC[C@@H](O)C1=O | muscarinic receptors | binding, competitive binding screen |  | concentration not given |  | activity | inactive
COCCOCCOCCOc1ccc(C2=N[C@@](C)(C(=O)O)CS2)c(O)c1 |  |  | bile duct-cannulated rats | subcutaneous, 300 µmol/kg |  | iron clearing efficiency | 8.7 ± 2.6%
CN1[C@@H](CC(=O)c2ccccc2)CCC[C@H]1C[C@H](O)c1ccccc1 |  | dopamine release, inhibitor | striatal slices | added: methamphetamine |  | IC50 | 420 nM
Nc1nc2c(ncn2COCCO)c(=O)[nH]1 |  | three-week survival | mouse, intranasal HSV-2 infection | oral |  | ED50 | 16 mg/kg
CCCCCCCCCCCCCCCCOP(=O)([O-])OCC[N+](C)(C)C |  |  | human visceral leishmaniasis India | concentration not given |  | cure rate at 6 months | ~90%
